Experimental data gathered from unrelated publications.
Every numbered part comes from another study and shows a few of its results, in no order.
Sequence of UniProt Q9UK32 (whole entry, looked up): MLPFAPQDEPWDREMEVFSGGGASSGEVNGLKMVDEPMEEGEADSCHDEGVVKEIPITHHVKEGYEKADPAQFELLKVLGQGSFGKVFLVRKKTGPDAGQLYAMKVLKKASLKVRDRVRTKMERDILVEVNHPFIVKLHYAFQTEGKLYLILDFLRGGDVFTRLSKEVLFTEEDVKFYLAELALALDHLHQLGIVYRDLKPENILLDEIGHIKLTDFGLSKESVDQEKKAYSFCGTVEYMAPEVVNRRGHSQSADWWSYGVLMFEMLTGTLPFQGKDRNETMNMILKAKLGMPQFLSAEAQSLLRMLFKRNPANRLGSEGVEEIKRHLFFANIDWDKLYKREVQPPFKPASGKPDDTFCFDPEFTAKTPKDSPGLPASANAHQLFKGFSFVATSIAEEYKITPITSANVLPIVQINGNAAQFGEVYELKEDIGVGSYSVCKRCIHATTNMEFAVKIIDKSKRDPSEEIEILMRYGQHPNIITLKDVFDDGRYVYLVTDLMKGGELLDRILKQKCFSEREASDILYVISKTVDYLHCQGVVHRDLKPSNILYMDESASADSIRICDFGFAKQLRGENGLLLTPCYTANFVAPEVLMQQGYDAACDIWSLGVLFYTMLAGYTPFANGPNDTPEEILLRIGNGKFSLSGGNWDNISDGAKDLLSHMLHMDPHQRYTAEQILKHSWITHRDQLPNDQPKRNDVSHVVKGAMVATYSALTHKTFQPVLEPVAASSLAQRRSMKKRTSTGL
Sequence of UniProt Q16539 (whole entry, looked up): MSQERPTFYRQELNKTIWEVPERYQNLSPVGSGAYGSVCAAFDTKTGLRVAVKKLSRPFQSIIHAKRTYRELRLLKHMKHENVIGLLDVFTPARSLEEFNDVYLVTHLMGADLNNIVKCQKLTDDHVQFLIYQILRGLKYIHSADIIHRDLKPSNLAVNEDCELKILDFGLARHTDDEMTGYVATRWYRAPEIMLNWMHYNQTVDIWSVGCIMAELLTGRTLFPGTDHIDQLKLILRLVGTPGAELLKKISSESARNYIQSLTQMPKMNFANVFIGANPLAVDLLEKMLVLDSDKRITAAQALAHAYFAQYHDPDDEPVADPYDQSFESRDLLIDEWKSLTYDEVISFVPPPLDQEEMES
Sequence of UniProt O14757 (whole entry, looked up): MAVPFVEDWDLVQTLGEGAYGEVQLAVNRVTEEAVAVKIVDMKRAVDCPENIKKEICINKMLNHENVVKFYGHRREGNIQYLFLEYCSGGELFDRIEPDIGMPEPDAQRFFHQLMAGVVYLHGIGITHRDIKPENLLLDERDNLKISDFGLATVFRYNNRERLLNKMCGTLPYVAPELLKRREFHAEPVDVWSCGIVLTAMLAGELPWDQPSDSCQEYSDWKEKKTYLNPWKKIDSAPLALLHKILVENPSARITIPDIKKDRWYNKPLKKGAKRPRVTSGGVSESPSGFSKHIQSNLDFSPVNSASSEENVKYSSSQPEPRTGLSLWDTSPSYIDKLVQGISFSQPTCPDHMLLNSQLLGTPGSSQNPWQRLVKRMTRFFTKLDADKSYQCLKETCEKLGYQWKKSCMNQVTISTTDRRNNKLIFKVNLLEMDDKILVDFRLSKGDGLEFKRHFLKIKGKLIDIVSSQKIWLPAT
Sequence of UniProt Q00537 (whole entry, looked up): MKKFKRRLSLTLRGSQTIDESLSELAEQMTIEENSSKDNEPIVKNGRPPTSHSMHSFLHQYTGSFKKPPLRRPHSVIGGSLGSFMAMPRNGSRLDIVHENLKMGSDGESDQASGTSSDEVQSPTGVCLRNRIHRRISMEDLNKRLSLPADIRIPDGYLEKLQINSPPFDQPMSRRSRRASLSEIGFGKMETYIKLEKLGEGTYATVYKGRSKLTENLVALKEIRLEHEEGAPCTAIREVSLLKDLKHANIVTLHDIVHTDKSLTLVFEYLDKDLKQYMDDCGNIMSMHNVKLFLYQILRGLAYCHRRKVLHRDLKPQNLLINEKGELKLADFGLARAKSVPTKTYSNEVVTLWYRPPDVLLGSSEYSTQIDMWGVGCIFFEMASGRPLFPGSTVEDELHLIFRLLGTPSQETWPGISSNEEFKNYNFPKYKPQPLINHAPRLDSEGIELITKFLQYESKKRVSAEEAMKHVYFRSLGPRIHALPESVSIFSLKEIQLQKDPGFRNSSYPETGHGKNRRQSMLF
Sequence of UniProt P42336 (whole entry, unmodified, looked up): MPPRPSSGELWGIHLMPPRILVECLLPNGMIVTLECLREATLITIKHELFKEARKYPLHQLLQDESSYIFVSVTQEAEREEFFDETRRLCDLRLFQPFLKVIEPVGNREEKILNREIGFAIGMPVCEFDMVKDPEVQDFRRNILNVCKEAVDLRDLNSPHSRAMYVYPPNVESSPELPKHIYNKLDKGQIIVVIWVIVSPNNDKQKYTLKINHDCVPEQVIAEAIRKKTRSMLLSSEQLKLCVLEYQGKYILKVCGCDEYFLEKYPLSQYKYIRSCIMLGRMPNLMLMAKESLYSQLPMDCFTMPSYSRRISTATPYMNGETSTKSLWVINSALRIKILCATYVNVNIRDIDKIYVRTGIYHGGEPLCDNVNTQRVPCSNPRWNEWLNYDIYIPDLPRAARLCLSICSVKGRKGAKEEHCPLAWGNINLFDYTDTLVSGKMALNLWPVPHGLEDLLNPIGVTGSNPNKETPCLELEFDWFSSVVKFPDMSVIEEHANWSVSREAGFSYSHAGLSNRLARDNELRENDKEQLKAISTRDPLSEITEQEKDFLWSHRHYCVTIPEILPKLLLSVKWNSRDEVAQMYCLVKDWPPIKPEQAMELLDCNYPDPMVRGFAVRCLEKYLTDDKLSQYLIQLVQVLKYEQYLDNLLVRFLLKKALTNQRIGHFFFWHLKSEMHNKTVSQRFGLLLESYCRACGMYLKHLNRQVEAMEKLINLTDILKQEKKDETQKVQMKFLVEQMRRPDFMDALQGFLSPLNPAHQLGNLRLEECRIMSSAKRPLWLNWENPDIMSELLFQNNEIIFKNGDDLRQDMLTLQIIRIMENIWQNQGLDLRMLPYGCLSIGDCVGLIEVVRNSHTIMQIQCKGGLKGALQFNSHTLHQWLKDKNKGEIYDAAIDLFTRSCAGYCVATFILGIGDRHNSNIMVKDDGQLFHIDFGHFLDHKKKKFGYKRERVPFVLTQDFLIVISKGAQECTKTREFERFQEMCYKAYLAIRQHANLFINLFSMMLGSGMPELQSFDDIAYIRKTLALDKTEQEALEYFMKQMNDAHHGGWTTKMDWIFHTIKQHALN
Sequence of UniProt P42680 (whole entry, looked up): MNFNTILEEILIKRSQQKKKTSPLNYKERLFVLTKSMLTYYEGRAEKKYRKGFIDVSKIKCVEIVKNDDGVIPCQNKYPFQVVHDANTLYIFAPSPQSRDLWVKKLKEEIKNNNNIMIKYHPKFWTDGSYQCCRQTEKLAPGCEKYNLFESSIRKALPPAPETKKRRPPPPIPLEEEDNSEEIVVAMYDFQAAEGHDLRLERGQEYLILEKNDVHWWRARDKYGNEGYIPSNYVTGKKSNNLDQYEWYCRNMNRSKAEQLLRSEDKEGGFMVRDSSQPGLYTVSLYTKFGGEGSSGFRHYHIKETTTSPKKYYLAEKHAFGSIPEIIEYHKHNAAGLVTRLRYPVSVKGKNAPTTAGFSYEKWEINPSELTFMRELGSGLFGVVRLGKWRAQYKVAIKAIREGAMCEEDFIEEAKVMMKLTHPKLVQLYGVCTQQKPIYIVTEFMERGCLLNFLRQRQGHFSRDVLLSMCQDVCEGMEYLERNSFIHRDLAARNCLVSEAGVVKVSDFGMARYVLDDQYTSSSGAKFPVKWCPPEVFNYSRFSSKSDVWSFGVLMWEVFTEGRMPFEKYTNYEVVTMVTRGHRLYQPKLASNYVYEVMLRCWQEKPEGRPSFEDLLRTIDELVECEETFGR

Block 1
Structure (SMILES): C[C@H](c1ccnc(Nc2nc3ccc(-c4cc(N(C)C)ncn4)cc3[nH]2)c1)N1CCN(C(=O)CC(F)(F)F)CC1
Method: competition with immobilised ligand
Concentration: 0.1 µM
It gave 97% for remaining binding (ALK (Homo sapiens, UniProt Q9UM73); cell-free assay).
Ribosomal protein S6 kinase alpha-6, C-terminal kinase domain (RPS6KA6, Homo sapiens, UniProt Q9UK32); cell-free assay — remaining binding: 56%.
The remaining binding was 100% (CSNK2A2 (Homo sapiens, UniProt P19784); cell-free assay).
The remaining binding was 100% (MAP2K4 (Homo sapiens, UniProt P45985); cell-free assay).
For CDK17 (Homo sapiens, UniProt Q00537); cell-free assay: remaining binding read 100%.
It gave 100% for remaining binding (PIK3CA (Homo sapiens, UniProt P42336, I800L); cell-free assay).
The remaining binding was 100% (TEC (Homo sapiens, UniProt P42680); binding).
The remaining binding was 100% (MAPK14 (Homo sapiens, UniProt Q16539); cell-free assay).
PIK3C2G (Homo sapiens, UniProt O75747); cell-free assay — remaining binding: 94%.
The remaining binding was 87% (CHEK1 (Homo sapiens, UniProt O14757); cell-free assay).
PIP5K1C (Homo sapiens, UniProt O60331); cell-free assay — remaining binding: 89%.
It gave 75% for remaining binding (FES (Homo sapiens, UniProt P07332); cell-free assay).
It gave 85% for remaining binding (TIE1 (Homo sapiens, UniProt P35590); cell-free assay).

Block 2
Host: human
Matrix: microsomes or S9
Concentration: 2 µM
Time: 0.5 h
The remaining compound of `CCc1ccc(OCC(=O)c2cc(CC)c(OC)cc2OC)cc1` is reported as 6.74%.
`CCCOc1ccc(S(=O)(=O)n2nc(C)cc2C)cc1C` has a remaining compound of 1.95%.
With `COC(=O)[C@@H](O)c1c(C)nc2[nH]c(C)c(C)c2c1Cl` the remaining compound was 36.6%.
For `COc1cc(/C=C/C(C)=O)ccc1O`, the remaining compound was 40.1%.
The remaining compound of `CC(C)n1ncc2c(=O)n(Cc3ncc(Cl)cc3Cl)cnc21` is reported as 15.5%.
The remaining compound of `O=C(Cn1nc2c(cc1=O)CCCCC2)Nc1nc[nH]n1` is reported as 92.9%.
The remaining compound of `CCOc1cc(=O)n2c(c1C(=O)NC1CCCC1)CCCCC2` is reported as 72.7%.
`Cc1nc2nc(C)c(Cc3cccc4ccccc34)c(O)n2n1` has a remaining compound of 5.71%.
`CN1CCCCCCN(S(=O)(=O)c2cccc(F)c2)CCC1=O` gave a remaining compound of 61.6%.
The remaining compound of `CCCc1cc(-c2nc(Cc3nn4c(C(C)C)nnc4s3)cs2)ccn1` is reported as over 99%.

Block 3
Target: Non-receptor tyrosine-protein kinase TYK2 (TYK2, Homo sapiens, UniProt P29597)
Sequence of UniProt P29597 (whole entry, looked up): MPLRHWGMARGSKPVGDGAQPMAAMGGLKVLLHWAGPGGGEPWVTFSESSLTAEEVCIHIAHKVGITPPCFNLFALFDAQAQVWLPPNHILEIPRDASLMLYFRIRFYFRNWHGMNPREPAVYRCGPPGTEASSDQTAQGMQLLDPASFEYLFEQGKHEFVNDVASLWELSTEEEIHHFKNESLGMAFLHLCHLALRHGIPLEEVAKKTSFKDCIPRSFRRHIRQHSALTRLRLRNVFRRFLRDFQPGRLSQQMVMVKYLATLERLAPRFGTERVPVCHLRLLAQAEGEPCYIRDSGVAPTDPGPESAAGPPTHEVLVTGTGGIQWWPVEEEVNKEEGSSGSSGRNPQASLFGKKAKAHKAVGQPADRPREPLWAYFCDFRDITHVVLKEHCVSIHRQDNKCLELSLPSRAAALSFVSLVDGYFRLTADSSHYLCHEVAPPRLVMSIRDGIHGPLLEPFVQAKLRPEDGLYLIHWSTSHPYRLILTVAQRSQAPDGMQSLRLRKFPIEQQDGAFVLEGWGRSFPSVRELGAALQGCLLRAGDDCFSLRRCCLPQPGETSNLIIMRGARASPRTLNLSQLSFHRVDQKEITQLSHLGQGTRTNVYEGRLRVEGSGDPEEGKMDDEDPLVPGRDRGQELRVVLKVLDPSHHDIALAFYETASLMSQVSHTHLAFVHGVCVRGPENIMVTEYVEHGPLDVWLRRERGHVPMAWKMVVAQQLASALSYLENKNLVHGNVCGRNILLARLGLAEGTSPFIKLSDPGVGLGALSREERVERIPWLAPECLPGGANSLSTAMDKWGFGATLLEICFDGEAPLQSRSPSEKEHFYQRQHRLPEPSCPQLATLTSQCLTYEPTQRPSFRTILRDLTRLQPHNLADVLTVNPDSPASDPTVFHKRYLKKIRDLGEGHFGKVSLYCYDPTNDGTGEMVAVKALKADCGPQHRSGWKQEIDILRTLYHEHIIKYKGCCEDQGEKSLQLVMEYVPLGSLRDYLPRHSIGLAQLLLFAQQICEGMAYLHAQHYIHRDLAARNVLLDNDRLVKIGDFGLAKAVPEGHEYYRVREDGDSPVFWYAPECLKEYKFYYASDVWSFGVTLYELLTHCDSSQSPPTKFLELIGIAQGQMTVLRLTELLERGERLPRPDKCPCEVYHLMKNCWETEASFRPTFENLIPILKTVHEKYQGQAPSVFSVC
Read-out: enzyme activity
Mode: inhibitor
Concentration: 0.5 µM
Reference: control
For `CN(C)C[C@H]1CCn2c(c(C3=C(c4cn(C)c5ccccc45)C(=O)NC3=O)c3ccccc32)C1`, the remaining activity was 104%.
The remaining activity of `O=C1c2ccccc2-c2n[nH]c3cccc1c23` is reported as 66.4%.
With `O=C(NC(NC(=S)Nc1ccc(F)c([N+](=O)[O-])c1)C(Cl)(Cl)Cl)C(c1ccccc1)c1ccccc1` (stereo not drawn) the remaining activity was 94%.
`O=C(Nc1cccc(Nc2nccc(Nc3cccc(C(F)(F)F)c3)n2)c1)C1CC1` gave a remaining activity of 42.5%.
For `Cn1nc2c3c(cccc31)C(=O)c1ccccc1-2`, the remaining activity was 89.4%.

Block 4
Target: His6 tag
Method: AlphaScreen counter screen
Concentration: concentration not given
`COc1ccc(-c2nnc3ccc(SCC(=O)O)nn23)cc1OC` has an inhibition of -11.4%.
For `N#CC(=C(N)Sc1ccc(N)cc1)c1ccccc1C(F)(F)F`, the inhibition was 13.3%.
`CCOc1ccccc1C(=O)Nc1ccc2[nH]ncc2c1` gave an inhibition of 8.3%.
The inhibition of `Nc1ccc(-c2c3ccc(=O)cc-3oc3cc(O)ccc23)cc1C(=O)O` is reported as 0.2%.
With `COc1ccc(-c2[nH]c3ncccc3c2CN2CCN(S(=O)(=O)N(C)C)CC2)cc1` the inhibition was 1.85%.
`Oc1cccc(-c2nc(N3CCOCC3)c3oc4ncccc4c3n2)c1` has an inhibition of 3.7%.
For `CO[C@@H]1[C@H](N(C)C(=O)c2ccccc2)C[C@H]2O[C@]1(C)n1c3ccccc3c3c4c(c5c6ccccc6n2c5c31)C(=O)NC4`, the inhibition was 9.95%.
With `O=C1NC(=O)C(=Cc2ccc(-c3ccc(F)cc3)o2)S1` the inhibition was -2.4%.

A few entries again (block 2):
`Cc1nc2nc(C)c(Cc3cccc4ccccc34)c(O)n2n1` has a remaining compound of 5.71%.
`CN1CCCCCCN(S(=O)(=O)c2cccc(F)c2)CCC1=O` gave a remaining compound of 61.6%.
